Measured values gathered from unrelated publications.
Compare with care: the assays were run in different laboratories. Numbers after ± are the reported error.
C5a: C5a (Homo sapiens, UniProt P01031)
Chain of UniProt P01031 (whole entry, looked up): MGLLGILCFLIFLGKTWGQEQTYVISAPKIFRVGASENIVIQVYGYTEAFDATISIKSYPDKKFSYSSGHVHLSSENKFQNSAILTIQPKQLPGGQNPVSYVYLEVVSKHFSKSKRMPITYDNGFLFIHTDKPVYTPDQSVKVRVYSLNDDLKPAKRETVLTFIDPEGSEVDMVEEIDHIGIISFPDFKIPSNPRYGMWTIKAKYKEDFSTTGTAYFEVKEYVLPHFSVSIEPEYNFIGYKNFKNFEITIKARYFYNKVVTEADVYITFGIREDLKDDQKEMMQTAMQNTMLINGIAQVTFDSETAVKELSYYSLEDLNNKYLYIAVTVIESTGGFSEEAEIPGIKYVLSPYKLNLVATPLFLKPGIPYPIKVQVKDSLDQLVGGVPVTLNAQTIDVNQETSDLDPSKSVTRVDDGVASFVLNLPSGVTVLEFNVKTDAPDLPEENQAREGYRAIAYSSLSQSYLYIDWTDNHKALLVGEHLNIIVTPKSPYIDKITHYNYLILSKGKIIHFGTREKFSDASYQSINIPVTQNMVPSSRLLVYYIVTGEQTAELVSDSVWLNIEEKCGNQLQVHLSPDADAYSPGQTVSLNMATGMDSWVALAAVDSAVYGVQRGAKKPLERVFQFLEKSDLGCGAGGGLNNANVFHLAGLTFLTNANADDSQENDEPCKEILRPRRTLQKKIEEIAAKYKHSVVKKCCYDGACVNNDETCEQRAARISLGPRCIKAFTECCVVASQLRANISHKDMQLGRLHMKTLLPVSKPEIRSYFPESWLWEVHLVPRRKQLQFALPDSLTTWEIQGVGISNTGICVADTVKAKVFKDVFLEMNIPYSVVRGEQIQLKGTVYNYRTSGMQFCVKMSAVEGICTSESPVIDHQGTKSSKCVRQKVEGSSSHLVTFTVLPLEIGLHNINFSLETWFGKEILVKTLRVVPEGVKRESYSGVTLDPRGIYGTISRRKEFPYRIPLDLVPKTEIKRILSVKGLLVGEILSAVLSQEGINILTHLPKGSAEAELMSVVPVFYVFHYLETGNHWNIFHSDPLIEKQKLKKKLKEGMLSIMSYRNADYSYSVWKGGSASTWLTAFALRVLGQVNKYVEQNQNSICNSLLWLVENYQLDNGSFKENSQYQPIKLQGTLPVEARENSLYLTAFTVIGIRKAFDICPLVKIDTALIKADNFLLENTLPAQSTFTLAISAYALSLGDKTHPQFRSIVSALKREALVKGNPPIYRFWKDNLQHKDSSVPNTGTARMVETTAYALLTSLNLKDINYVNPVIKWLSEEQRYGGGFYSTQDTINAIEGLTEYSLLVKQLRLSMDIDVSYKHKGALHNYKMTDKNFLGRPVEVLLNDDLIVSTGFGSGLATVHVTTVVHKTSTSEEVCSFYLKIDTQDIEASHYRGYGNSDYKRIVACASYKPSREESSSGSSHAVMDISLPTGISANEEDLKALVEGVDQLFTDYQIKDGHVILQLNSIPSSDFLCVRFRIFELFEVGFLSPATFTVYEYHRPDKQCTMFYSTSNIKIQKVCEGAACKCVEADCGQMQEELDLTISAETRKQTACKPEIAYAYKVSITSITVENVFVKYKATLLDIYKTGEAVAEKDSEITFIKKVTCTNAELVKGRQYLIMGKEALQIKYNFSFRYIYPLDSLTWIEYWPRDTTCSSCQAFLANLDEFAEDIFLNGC
T1: MBNL1 1-382 (Homo sapiens); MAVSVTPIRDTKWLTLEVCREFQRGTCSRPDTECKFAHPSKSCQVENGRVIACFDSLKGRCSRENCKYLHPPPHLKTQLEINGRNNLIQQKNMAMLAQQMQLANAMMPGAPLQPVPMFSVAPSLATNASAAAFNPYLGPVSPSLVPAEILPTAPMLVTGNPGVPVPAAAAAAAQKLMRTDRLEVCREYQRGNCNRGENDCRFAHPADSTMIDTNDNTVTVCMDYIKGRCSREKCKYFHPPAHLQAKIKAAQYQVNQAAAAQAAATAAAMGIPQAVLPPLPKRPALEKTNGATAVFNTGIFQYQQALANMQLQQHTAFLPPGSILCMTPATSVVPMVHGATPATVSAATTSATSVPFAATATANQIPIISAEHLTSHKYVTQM
B1: UGT1A9 (Homo sapiens, UniProt O60656); chain GKLLVVPMDGSHWFTMRSVVEKLILRGHEVVVVMPEVSWQLGRSLNCTVKTYSTSYTLEDLDREFKAFAHAQWKAQVRSIYSLLMGSYNDIFDLFFSNCRSLFKDKKLVEYLKESSFDAVFLDPFDNCGLIVAKYFSLPSVVFARGILCHYLEEGAQCPAPLSYVPRILLGFSDAMTFKERVRNHIMHLEEHLLCHRFFKNALEIASEILQTPVTEYDLYSHTSIWLLRTDFVLDYPKPVMPNMIFIGGINCHQGKPLPMEFEAYINASGEHGIVVFSLGSMVSEIPEKKAMAIADALGKIPQTVLWRYTGTRPSNLANNTILVKWLPQNDLLGHPMTRAFITHAGSHGVYESICNGVPMVMMPLFGDQMDNAKRMETKGAGVTLNVLEMTSEDLENALKAVINDKSYKENIMRLSSLHKDRPVEPLDLAVFWVEFVMRHKGAPHLRPAAHDLTWYQYHSLDVIGFLLAVVLTVAFITFKCCAYGYRKCLGKKGRVKKAHKSKTH
Chain of UniProt Q969S2 (whole entry, looked up): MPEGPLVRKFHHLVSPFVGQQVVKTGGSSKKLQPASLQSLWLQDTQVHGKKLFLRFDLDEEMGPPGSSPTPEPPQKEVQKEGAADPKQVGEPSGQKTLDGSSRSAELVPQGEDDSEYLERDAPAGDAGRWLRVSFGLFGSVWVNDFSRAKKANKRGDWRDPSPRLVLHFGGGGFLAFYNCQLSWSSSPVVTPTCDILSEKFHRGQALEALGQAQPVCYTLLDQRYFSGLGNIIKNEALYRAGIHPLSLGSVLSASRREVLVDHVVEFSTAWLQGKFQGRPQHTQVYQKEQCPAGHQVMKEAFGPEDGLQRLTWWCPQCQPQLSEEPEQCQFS
Chain of UniProt Q8H1D4 (whole entry, looked up): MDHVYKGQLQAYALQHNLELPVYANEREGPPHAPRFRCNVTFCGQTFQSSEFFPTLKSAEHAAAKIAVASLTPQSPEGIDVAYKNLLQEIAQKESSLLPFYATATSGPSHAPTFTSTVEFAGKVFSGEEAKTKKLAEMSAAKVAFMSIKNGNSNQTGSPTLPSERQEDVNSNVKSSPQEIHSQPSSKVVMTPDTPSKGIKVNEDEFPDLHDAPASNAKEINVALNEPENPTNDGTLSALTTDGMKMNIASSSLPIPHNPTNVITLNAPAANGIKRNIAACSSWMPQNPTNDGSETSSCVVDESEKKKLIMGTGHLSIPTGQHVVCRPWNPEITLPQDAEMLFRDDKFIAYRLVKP
Chain of UniProt P09874 (whole entry, looked up): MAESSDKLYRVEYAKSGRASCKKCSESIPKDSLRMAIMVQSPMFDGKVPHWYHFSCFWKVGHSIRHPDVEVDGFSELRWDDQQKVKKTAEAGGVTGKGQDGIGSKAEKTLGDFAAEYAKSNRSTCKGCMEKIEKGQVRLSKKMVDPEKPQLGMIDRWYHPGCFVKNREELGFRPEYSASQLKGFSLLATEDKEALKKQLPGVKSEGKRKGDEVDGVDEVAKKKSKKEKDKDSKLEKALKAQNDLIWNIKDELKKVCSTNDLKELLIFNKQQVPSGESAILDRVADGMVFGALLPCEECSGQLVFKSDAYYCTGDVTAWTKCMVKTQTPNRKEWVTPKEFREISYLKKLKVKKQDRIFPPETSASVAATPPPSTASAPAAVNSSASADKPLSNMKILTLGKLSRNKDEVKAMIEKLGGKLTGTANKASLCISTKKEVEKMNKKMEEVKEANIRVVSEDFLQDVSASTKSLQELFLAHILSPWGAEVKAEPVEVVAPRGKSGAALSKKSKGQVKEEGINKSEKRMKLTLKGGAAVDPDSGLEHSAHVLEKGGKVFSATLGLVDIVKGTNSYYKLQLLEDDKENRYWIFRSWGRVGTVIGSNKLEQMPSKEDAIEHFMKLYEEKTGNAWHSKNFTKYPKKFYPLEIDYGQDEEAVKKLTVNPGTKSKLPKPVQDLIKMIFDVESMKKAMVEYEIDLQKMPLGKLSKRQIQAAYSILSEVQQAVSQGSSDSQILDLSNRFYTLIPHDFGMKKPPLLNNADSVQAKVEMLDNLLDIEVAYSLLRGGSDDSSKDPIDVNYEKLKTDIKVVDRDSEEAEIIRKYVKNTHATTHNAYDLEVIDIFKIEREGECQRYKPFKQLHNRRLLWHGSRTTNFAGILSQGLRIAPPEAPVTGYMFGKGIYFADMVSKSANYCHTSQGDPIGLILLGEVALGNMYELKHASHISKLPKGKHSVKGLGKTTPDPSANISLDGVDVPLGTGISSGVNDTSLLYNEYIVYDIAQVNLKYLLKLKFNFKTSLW

`CGCTAGGATCNGGCCCCGCC / GGCGGGGCCGGATCCTAGCG (dsDNA; blunt, tetrahydrofuran abasic site opposite G)` gave a Kd of 24 nM (NEIL2 full length assumed (Homo sapiens, UniProt Q969S2); EMSA; apparent, cooperative fit).
With `GAGUUGAGUUGAGUUGAGUUGAGUUGAGUUGAGUUGAGUUGAGUUGAGUUGAGUU (ssRNA; single strand)` the Kd was 335 ± 5 nM (mtrB full length assumed T30E (Bacillus subtilis, UniProt P19466); filter binding; together with: L-tryptophan 1 mM).
With `CAACTGAGACCATGTACCCAGTTCGAATCGGATGTATATATCTGACACGTGCCTGGAGACTAGGGAGTAATCCCCTTGGCGGTTAAAACGCGGGGGACAGCGCGTACGTGCGTTTAAGCGGTGCTAGAGCTGTCTACGACCAATTGAGCGGCCTCGGCACCGGGATTCTCGATAACTCAGCAATAGTGGGTCTCA / ACCATGAGACCCACTATTGCTGAGTTATCGAGAATCCCGGTGCCGAGGCCGCTCAATTGGTCGTAGACAGCTCTAGCACCGCTTAAACGCACGTACGCGCTGTCCCCCGCGTTTTAACCGCCAAGGGGATTACTCCCTAGTCT / CCAGGCACGTGTCAGATATATACATCCGATTCGAACTGGGTACATGGTCTCA (dsDNA; nucleosome, nick with 5'-OH)` the Kd was 4 ± 0.5 nM (PARP1 full length assumed (Homo sapiens, UniProt P09874); optical tweezers; single molecule, not purified, together with: force 4 pN).
The Vmax/Km of `B1 (UGT1A9)` is reported as 14 µL/min/mg (CC(=O)c1ccc(O)cc1; steady-state kinetics; pH 7.4, 37 °C).
The Kd of `GACGTCCTCGCATCAAGATGCTGCTGCCATCTTATATTTTCTATACAATAAGTATAGAAAATATAAGATGGCAGCAGCATCTTGATGCGAGGACGTC (dsDNA; hairpin, AATAA loop, blunt end)` is reported as 47.8 ± 2.14 nM (SPO11/TOP6BL (Mus musculus); EMSA; without Mg2+).
For `UGAGGUAGUAGGUUGUAUAGUU / CUAUACAACCUACUACCUCANN (dsRNA; 3' overhang 2 nt)`, the Kd was 2400 ± 300 nM (DBR4 1-153 (Arabidopsis thaliana, UniProt Q8H1D4); ITC; averaged single site).
With `GCGGACGGACAGAGAGUGCAACCUGCCGUGCCGC (ssRNA; 2'-F pyrimidines, 5' thiol-C6)` the Kd was 264 ± 30.3 nM (ITGA5/ITGB1 on cells (Mus musculus); flow cytometry; MB49-Luc; MgCl2 1 mM, CaCl2 0.5 mM, not purified).
The Kd of `GUGAUGUGGUGGUGAAGGGUUGUUGGGUGUCGACGCACAC (L-RNA; terminal stem, six DNA residues)` is reported as 0.8 nM (C5a; SPR).
`CUGCUGCUGCUGCUGCUGCUGCUGCUGCUGCUGCUGCUGCUGCUGCUGCUGCUGCUGCUGCUGCUGCUGCUGCUGCUGCUGCUGCUGCUGCUGCUGCUGCUGCUGCUGCUGCUGCUGCUGCUGCUGCUGCUGCUGCUGCUGCUGCUGCUGCUGCUGCUGCUG (RNA hairpin; hairpin)` gave a Kd of 5.3 ± 0.6 nM (T1, MBNL1 1-382 (Homo sapiens); filter binding).
`GAGGCCCTTTCGTCTTCAAGAATTCTATTTGACAAAAATGGGCTCGTGTTGTACAATAAATGTGTCTAAGCTTGGGTCCCACCTGAC (dsDNA (Bacillus subtilis); blunt, A replaced by 7-phenyl-7-deazaadenine)` gave a Kd of 35.8 ± 5 nM (RNA polymerase holoenzyme sigma70 (Escherichia coli); EMSA; double-stranded DNA, one strand shown).
With `GCCUGAUGUGGUGGUGAAGGGUUGUUGGGUGUCGACGCACAGGC (L-RNA; terminal stem, one DNA residue)` the Kd was 0.71 nM (C5a; SPR).

Excerpt of the above:
`CUGCUGCUGCUGCUGCUGCUGCUGCUGCUGCUGCUGCUGCUGCUGCUGCUGCUGCUGCUGCUGCUGCUGCUGCUGCUGCUGCUGCUGCUGCUGCUGCUGCUGCUGCUGCUGCUGCUGCUGCUGCUGCUGCUGCUGCUGCUGCUGCUGCUGCUGCUGCUGCUG (RNA hairpin; hairpin)` gave a Kd of 5.3 ± 0.6 nM (T1, MBNL1 1-382 (Homo sapiens); filter binding).
`GAGGCCCTTTCGTCTTCAAGAATTCTATTTGACAAAAATGGGCTCGTGTTGTACAATAAATGTGTCTAAGCTTGGGTCCCACCTGAC (dsDNA (Bacillus subtilis); blunt, A replaced by 7-phenyl-7-deazaadenine)` gave a Kd of 35.8 ± 5 nM (RNA polymerase holoenzyme sigma70 (Escherichia coli); EMSA; double-stranded DNA, one strand shown).
